# Earlier results, collected from citations in different studies.
# Each line is one published result; not all experiments were run side by side. ± marks the error that the study gave.
SMILES,test,system,conditions,scale,endpoint,value
COc1cc2c(NC3CCN(C)CC3)nc(N3CCCN(C)CC3)nc2cc1OCc1ccccc1,,,pH 7.4,,logD,4.2
C=C[C@@H]1C[C@]1(NC(=O)[C@@H]1C[C@@H](Oc2ncc(OC)c3ccccc23)CN1C(=O)[C@@H](NC(=O)OC(C)(C)C)C(C)(C)C)C(=O)NS(=O)(=O)C1CC1,,"rat, liver","intravenous, 5 mg/kg, 24 h",,tissue concentration,8 µM
O=C([O-])CN1CCN(CC(=O)NCCN(Cc2ccccn2)Cc2ccccn2)CCN(CC(=O)[O-])CCN(CC(=O)NCCN(Cc2ccccn2)Cc2ccccn2)CC1.[Eu+3],,Eu(III) complex,,,TSAP isomer fraction,~40%
O=C(CCCCC[N+]#[C][99Tc-5]([C]#[N+]CCCCCC(=O)N[C@H]1C(O)O[C@H](CO)[C@@H](O)[C@@H]1O)([C]#[N+]CCCCCC(=O)N[C@H]1C(O)O[C@H](CO)[C@@H](O)[C@@H]1O)([C]#[N+]CCCCCC(=O)N[C@H]1C(O)O[C@H](CO)[C@@H](O)[C@@H]1O)([C]#[N+]CCCCCC(=O)N[C@H]1C(O)O[C@H](CO)[C@@H](O)[C@@H]1O)[C]#[N+]CCCCCC(=O)N[C@H]1C(O)O[C@H](CO)[C@@H](O)[C@@H]1O)N[C@H]1C(O)O[C@H](CO)[C@@H](O)[C@@H]1O (stereo partly shown),,mouse A549 xenograft,,,tumour/blood ratio,60.8 ± 2.86
O=C([O-])CN1CCN(CC(=O)[O-])CCN(CC(=O)c2ccccc2)CCN(CC(=O)[O-])CC1.[Eu+3],,,excitation at 265 nm,,Eu3+ luminescence quantum yield,0.058
C=CC1CC1(NC(=O)C1CC(Oc2nccc3cc(OC)ccc23)CN1C(=O)C(NC(=O)OC(C)(C)C)C(C)C)C(=O)NS(=O)(=O)C1CC1 (stereo not shown),,isolated perfused rabbit heart,"10 µM, time not given",,sinus node recovery time change,144%
O=P(O)(O)CN1CCN(CP(=O)(O)O)CCN(CP(=O)(O)O)CCN(CP(=O)(O)O)CC1.[177Lu+3],,bone,concentration not given,,tissue uptake,4.23 %ID/g
Cc1ccccc1-c1cc(N2CC[N+](C)([O-])CC2)ncc1N(C)C(=O)C(C)(C)c1cc(C(F)(F)F)cc(C(F)(F)F)c1,,"healthy volunteers, plasma","oral, dose not given, netupitant-palonosetron, fed",,Cmax,147 ng/mL
COc1ccc(Nc2nccc(-c3c[nH]nc3-c3cccnc3)n2)cc1,,rat liver microsomes,60 min,,remaining compound,0%
CC(C)Sc1ccc(SC(C)C)c(O)c(=O)c1O,,,,,pKa2,> 12
COCCOCCOCCOCCC(=O)NCc1cc(CNC(=O)CCOCCOCCOCCOC)cc(-c2cc3cc4nc(c(OC)c5[nH]c(cc6nc(cc2[nH]3)CC6(C)C)cc5-c2cc(CNC(=O)CCOCCOCCOCCOC)cc(CNC(=O)CCOCCOCCOCCOC)c2)CC4(C)C)c1,,DMF,room temperature,,internal conversion yield,0.38
Cc1cc(N)nc(C[C@@H]2CNC[C@@H]2OCCNCCc2cccc(F)c2)c1 (racemic),,pregnant rabbits,dose not given,,cardiovascular function,no effect
C=C[C@@H]1C[C@]1(NC(=O)[C@@H]1C[C@@H](Oc2cc(-c3ccccc3)nc3cc(OC)ccc23)CN1C(=O)[C@@H](NC(=O)OC(C)(C)C)C(C)(C)C)C(=O)NS(=O)(=O)C1CC1,,"rat, plasma","oral, 20 mg/kg, 4 h",,concentration,580 nM
CCN(CC)C(=S)c1ccc(-c2c3ccc(=[N+](C)C)cc-3sc3cc4c(cc23)C(C)(C)CCN4C)s1,,methanol,,,molar extinction coefficient,63000 M⁻¹ cm⁻¹
Cc1cccc(-c2cccc(C)n2)n1.[Ru+2].c1ccc(-c2cccc(-c3ccccn3)n2)nc1.c1ccncc1,,water,concentration not given,,ligand exchange quantum yield,0.41
CCCN1CC(c2ccc(S(C)(=O)=O)cc2)=C(c2ccc(C(=O)O)cc2)C1=O,,renal insufficiency patients,dose not given,relative to: healthy subjects,exposure,increased
FC1(F)[C@H]2O[C@@H]1[C@H](COCc1ccccc1)[C@@H](COCc1ccccc1)O2,,,pH 7.4,,hydrolytic half-life,> 720 h
CCCC(CCC)C(=O)[O][Pt]([Cl])([Cl])[O]C(=O)C(CCC)CCC.N.N,shake flask,octanol/water,,,logP,0.25 ± 0.03
O=C(O)CCCCCCC(=O)Nc1ccccc1,,human,,relative to: vorinostat,steady-state serum exposure,13 fold
O=S(=O)(c1ccccc1)N1CCCCC1,,sodium borate buffer,"24 h, pH 10",,recovery,100%
CC(C)(C)[C@H](NC(=O)[C@H](CCONC(=N)N)NC(=O)Cc1ccc(CNC(=N)N)cc1)C(=O)N[C@@H](CCONC(=N)N)C(=O)NCc1ccc(C(=N)N)cc1,,mouse,intraperitoneal,,tolerated dose,15 mg/kg
CC(C)OC(=O)[C@H](CO)NCc1cc(Cl)c(OCc2cccc(-c3ccccc3)c2Br)cc1OCc1cccnc1,,rat liver S9,40 min,,transformation,100%
CNc1c(C)n(C)n(-c2ccccc2)c1=O,,rabbit liver microsomes,added: NADPH,,demethylation share,< 50%
CC(=O)N[C@@H](CO)C(=O)N[C@@H](CC(=O)O)C(=O)N[C@@H](CCCCN)C(=O)N1CCC[C@H]1C(=O)O,,,,,circulation half-life,4.5 min
Cc1cc(NC2Cc3cc(F)c(F)cc3C2)n2nc(C(C)(F)F)nc2n1,,"mouse, plasma","oral, 20 mg/kg",,AUC(0-inf),170 µM·h
Cc1ccccc1-c1cc(N2CCNCC2)ncc1N(C)C(=O)C(C)(C)c1cc(C(F)(F)F)cc(C(F)(F)F)c1,,"healthy volunteers, plasma","oral, 450 mg, single dose, added: palonosetron 0.75 mg",,Cmax,59.1 ng/mL
Cc1cc(C(=O)O)ccc1Sc1ccccc1N1CCNCC1,,plasma,vortioxetine,relative to: metabolite AUC over vortioxetine AUC,metabolic ratio,~1
O=C1Nc2c(O)cc(Cl)cc2[C@@](C#CC2(O)CC2)(C(F)(F)F)O1,,"human, cerebrospinal fluid",dose not given,,concentration,0.38 to 0.44 ng/mL
CCCCCCc1ccc(Oc2ccccc2C#N)c(O)c1,,mouse,40 mg/kg,,half-life,6.2 h
NS(=O)(=O)c1ccc(N2N=C(C(F)(F)F)CC2c2ccc(F)cc2F)cc1 (stereo not shown),,Beagle dog,"oral, 5 mg/kg",,terminal half-life,27.8 h
CN1CCc2nc(C(=O)N[C@@H]3C[C@@H](C(=O)N(C)C)CC[C@@H]3NC(=O)C(=O)Nc3ccc(Cl)cn3)sc2C1,,human,,,share of total clearance by metabolism,~10%
CC(=O)N[C@H](CC(=O)O)C(=O)N[C@H](Cc1c[nH]c2ccccc12)C(=O)N[C@H](Cc1ccccc1)C(=O)N[C@H](CCCCN)C(=O)N[C@H](C)C(=O)N[C@H](Cc1ccccc1)C(=O)N[C@H](Cc1ccc(O)cc1)C(=O)N[C@H](CC(=O)O)C(=O)N[C@H](CCCCN)C(=O)N[C@@H](C(=O)N[C@H](C)C(=O)N[C@H](CCC(=O)O)C(=O)N[C@H](CCCCN)C(=O)N[C@H](Cc1ccccc1)C(=O)N[C@H](CCCCN)C(=O)N[C@H](CCC(=O)O)C(=O)N[C@H](C)C(=O)N[C@H](Cc1ccccc1)C(N)=O)C(C)C,,"LDLR-knockout mouse, plasma",45 mg/kg/day,relative to: subcutaneous over oral,plasma level ratio,298 fold
O=C(Nc1ccc(Br)cc1)Nc1ccc2nc(-c3ccco3)c(-c3ccco3)nc2c1,,mouse,oral,,oral bioavailability,~5%
COc1cc2c(c(OC)c1OC)-c1c(cc(OC)c(OC)c1OC)C[C@](C)(O)[C@@H](C)C2,,rat,"oral, purified compound",,oral bioavailability,16%
COC(=O)c1cc(=O)n(C)c2cc(-c3ccc(OC)cc3)sc12,,dichloromethane,10 µM,,excitation maximum,412 nm
O=C(O)c1cccc(S(=O)(=O)Nc2ccccc2)c1,,human,clinical mass balance,,fraction of dose by β-oxidation,6.1%
CN1CCN(c2cc(-c3ccccc3CO)c(N(C)C(=O)C(C)(C)c3cc(C(F)(F)F)cc(C(F)(F)F)c3)cn2)CC1,,"healthy volunteers, plasma","oral, 300 mg, fasted, fixed-dose combination, added: palonosetron 0.5 mg",,AUC(0-inf),5840 ng·h/mL
CC#N.Cc1ccc(O)c(CN(CCN(Cc2ccccn2)Cc2ccccn2)Cc2ccccn2)c1.[Mn+2],,,concentration not given,,reduction potential Mn(III)/Mn(II),466 mV vs Ag/AgCl
COc1ccn2c(Nc3cc(F)cc(F)c3)c(-c3ccccn3)nc2c1,,mouse liver microsomes,,,CLint,62 µL/min/mg protein
C[N+]1=C(C=CC=CC=C2N(CCCCCC(=O)O)c3ccccc3C2(C)C)C(C)(C)c2cc(S(=O)(=O)[O-])ccc21,,PBS,,,fluorescence quantum yield,13%

# Some of these lines once more:
SMILES,test,system,conditions,scale,endpoint,value
CCCCCCc1ccc(Oc2ccccc2C#N)c(O)c1,,mouse,40 mg/kg,,half-life,6.2 h
COc1ccn2c(Nc3cc(F)cc(F)c3)c(-c3ccccn3)nc2c1,,mouse liver microsomes,,,CLint,62 µL/min/mg protein
O=C(O)c1cccc(S(=O)(=O)Nc2ccccc2)c1,,human,clinical mass balance,,fraction of dose by β-oxidation,6.1%
Cc1ccccc1-c1cc(N2CC[N+](C)([O-])CC2)ncc1N(C)C(=O)C(C)(C)c1cc(C(F)(F)F)cc(C(F)(F)F)c1,,"healthy volunteers, plasma","oral, dose not given, netupitant-palonosetron, fed",,Cmax,147 ng/mL
